# Assay results collected from several papers.
# Parts stem from different laboratories: compare values within a part only.
# Chain of UniProt Q15759 (whole entry, looked up): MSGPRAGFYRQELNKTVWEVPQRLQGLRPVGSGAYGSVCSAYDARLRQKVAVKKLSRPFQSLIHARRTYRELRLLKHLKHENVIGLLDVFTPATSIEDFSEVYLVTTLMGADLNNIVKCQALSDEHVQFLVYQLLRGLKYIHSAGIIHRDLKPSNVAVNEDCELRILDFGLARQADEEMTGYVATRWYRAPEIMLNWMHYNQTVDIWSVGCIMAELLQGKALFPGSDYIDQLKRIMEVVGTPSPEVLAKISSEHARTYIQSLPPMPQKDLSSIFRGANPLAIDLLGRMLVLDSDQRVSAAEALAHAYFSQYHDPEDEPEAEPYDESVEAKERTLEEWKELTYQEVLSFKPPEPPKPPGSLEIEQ
# Chain of UniProt Q8N4C8 (whole entry, looked up): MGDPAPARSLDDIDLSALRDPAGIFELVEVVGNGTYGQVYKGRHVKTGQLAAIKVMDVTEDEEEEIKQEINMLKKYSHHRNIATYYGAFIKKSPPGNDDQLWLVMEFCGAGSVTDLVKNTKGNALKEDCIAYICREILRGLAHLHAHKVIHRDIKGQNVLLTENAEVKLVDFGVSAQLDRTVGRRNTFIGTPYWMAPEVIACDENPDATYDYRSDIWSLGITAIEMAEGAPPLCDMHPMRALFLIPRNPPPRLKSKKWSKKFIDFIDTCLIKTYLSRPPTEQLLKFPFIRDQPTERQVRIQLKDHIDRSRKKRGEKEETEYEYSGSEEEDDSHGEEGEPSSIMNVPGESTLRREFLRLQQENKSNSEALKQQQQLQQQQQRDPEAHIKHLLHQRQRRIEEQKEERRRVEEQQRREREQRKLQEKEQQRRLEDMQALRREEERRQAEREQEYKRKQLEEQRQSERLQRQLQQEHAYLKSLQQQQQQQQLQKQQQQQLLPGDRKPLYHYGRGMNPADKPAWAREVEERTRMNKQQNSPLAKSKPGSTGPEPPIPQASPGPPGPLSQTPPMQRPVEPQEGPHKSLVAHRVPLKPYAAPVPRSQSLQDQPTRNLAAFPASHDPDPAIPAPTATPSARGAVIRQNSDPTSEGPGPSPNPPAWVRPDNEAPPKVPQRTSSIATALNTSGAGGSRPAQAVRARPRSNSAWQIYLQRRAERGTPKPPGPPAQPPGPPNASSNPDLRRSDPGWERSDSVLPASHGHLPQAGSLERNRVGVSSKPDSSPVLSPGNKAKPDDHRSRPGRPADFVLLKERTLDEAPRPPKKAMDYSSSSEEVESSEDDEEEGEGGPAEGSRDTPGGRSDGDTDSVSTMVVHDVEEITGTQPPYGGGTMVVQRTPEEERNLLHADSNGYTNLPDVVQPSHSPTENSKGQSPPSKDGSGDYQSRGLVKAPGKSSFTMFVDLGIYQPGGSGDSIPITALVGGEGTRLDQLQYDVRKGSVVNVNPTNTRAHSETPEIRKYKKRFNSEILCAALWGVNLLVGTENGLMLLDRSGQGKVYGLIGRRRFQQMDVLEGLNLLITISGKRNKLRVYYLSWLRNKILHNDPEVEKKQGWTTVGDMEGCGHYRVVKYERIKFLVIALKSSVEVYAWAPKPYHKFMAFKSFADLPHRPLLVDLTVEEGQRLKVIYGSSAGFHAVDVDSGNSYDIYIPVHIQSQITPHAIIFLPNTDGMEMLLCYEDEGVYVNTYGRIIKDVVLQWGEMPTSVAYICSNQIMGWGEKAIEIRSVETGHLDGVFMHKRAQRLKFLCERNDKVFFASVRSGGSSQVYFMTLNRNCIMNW
# Chain of UniProt P51956 (whole entry, looked up): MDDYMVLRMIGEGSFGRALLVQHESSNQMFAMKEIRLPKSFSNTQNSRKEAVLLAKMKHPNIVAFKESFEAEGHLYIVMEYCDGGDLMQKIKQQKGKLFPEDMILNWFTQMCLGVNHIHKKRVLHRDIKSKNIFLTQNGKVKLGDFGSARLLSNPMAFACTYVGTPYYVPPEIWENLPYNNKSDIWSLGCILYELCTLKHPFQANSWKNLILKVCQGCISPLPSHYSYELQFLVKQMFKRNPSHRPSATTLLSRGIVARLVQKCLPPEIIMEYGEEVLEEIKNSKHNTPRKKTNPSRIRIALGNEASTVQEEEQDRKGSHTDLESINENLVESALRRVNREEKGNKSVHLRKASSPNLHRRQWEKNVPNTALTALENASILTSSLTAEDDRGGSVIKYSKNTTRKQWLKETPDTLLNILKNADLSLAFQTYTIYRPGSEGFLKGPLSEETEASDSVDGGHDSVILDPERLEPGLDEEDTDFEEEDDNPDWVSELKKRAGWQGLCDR
# Chain of UniProt O75914 (whole entry, looked up): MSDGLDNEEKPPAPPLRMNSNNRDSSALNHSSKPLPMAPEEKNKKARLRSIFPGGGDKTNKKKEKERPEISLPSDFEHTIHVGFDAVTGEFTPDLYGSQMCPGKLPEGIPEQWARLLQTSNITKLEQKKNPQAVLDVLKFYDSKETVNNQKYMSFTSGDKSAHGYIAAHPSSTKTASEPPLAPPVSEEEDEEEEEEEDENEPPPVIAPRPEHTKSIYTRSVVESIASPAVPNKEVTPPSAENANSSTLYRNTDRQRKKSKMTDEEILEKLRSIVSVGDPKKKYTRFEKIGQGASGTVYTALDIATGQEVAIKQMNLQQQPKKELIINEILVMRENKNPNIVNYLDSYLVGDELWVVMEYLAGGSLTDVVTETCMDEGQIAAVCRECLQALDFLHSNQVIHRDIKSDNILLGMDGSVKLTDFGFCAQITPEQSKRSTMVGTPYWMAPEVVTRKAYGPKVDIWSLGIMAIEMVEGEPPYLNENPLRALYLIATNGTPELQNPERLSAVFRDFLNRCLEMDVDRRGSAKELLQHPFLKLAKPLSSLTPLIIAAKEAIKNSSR
# Chain of UniProt P08581 (whole entry, looked up): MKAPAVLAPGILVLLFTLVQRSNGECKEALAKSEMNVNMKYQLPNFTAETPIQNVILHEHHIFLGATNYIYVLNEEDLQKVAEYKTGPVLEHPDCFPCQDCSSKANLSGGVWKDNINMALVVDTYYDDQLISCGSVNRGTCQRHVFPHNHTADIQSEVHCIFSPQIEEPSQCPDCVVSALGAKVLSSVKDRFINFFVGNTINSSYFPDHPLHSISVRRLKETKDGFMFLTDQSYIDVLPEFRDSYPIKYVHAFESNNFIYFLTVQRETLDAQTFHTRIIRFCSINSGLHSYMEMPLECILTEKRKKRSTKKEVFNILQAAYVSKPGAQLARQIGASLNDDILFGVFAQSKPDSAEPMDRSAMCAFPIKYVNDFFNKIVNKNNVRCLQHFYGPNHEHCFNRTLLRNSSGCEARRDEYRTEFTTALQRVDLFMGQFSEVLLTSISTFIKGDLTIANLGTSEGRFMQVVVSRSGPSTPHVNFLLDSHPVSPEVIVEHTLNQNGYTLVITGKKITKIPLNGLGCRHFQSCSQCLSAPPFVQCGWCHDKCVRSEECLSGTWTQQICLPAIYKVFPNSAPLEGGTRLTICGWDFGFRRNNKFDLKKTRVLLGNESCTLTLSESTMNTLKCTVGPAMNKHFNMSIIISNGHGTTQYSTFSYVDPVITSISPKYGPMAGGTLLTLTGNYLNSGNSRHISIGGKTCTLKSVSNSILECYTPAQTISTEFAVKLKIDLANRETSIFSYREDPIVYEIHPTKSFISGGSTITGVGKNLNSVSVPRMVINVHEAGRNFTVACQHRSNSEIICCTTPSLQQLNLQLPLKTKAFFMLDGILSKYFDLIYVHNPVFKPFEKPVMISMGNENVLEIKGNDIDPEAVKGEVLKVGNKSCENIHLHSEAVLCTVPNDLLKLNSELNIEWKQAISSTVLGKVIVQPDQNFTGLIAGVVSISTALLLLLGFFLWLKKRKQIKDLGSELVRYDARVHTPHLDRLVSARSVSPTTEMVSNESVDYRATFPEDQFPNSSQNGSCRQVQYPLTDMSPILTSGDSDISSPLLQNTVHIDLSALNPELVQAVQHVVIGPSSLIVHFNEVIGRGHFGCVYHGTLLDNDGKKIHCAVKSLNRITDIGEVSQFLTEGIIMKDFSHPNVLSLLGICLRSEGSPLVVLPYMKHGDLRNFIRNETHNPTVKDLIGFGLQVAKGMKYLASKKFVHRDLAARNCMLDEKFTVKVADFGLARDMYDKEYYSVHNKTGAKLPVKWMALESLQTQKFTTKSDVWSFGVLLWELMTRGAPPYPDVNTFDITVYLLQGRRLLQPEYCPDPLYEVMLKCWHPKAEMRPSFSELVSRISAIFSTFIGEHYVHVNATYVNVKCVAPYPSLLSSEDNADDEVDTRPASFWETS
# Chain of UniProt Q9HAZ1 (whole entry, looked up): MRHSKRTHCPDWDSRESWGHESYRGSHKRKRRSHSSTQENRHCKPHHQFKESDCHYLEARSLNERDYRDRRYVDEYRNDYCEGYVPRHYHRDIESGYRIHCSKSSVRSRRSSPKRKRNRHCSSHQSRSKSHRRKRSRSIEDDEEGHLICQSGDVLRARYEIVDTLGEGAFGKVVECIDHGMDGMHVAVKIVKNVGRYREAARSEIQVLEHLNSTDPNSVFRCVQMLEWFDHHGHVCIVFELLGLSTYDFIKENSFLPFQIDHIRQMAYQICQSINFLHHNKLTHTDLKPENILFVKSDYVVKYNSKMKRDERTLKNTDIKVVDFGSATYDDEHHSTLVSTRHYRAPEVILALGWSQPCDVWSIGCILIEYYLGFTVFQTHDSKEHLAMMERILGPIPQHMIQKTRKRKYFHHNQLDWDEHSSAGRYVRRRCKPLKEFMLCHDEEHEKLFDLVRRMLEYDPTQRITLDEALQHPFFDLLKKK

# Set 1
# Host: mouse
# Matrix: microsomes or S9
# Tested at: 2 µM
# Time: 0.5 h
SMILES,remaining compound [%]
CN(c1cccnn1)S(=O)(=O)c1c(Cl)ccc2scnc12,92.6
CCN(CC(O)COc1ccccc1)C(=O)c1cccc(-c2ccc(O)cc2)c1 (stereo not drawn),52.9
COc1cc(=O)n2c(c1C(=O)N1CCN(c3ccc(C)cc3)CC1)CCCC2,53.6
CC(C)CCN(C)C1CCN(S(=O)(=O)c2ccc(C3CCCCC3)cc2)CC1,71.7
CCC(CC)C(=O)N1CCN(S(=O)(=O)c2ccccc2)CC1,5.75
CCc1cccc(CC)c1NC(=O)CN(c1cccc(Cl)c1Cl)S(C)(=O)=O,1.68
Cc1cn(C)c(CC(=O)NCCCN2CCC(Cc3ccccc3)CC2)c1C(=O)O,95.5
CC(Cc1nc2c(s1)Cc1ccccc1-2)n1cc(Cl)cn1 (stereo not drawn),0.0197

# Set 2
# SMILES: COc1cc(C(=O)N2CCC(N3CCN(C)CC3)CC2)ccc1Nc1ncc2c(n1)N(C)c1ccccc1C(=O)N2C
target,assay,system,setting,inhibition [%]
p70S6K human,KiNativ profiling,human PBMC lysate,"concentration not given, ATP probe, ATP loop site",8.9
ABL and ARG (mouse),"probe labelling, KiNativ, item: Lys1 site peptide",brain tissue lysate (mouse),"1 µM, added: ATP acyl-phosphate probe",14.2
ULK3 human,KiNativ profiling,human PBMC,"0.1 µM, LYS2 site, added: ATP acyl phosphate probe",18.4
SYK human,KiNativ profiling,human PBMC,"0.1 µM, LYS1 site, added: ADP acyl phosphate probe",0
BARK1 and BARK2 mouse,KiNativ profiling,mouse brain lysate,"0.1 µM, LYS1 site, added: ADP acyl phosphate probe",5
CaMK2a (mouse),"probe labelling, KiNativ, item: Lys1 site peptide",brain tissue lysate (mouse),"0.1 µM, added: ATP acyl-phosphate probe",10.6
AKT1 (mouse),"probe labelling, KiNativ, item: GTFGkVILVK peptide, ATP loop",brain tissue lysate (mouse),"1 µM, added: ADP acyl-phosphate probe",2.6

# Set 3
# Target: D(2) dopamine receptor (DRD2, Homo sapiens, UniProt P14416)
# Chain of UniProt P14416 (whole entry, looked up): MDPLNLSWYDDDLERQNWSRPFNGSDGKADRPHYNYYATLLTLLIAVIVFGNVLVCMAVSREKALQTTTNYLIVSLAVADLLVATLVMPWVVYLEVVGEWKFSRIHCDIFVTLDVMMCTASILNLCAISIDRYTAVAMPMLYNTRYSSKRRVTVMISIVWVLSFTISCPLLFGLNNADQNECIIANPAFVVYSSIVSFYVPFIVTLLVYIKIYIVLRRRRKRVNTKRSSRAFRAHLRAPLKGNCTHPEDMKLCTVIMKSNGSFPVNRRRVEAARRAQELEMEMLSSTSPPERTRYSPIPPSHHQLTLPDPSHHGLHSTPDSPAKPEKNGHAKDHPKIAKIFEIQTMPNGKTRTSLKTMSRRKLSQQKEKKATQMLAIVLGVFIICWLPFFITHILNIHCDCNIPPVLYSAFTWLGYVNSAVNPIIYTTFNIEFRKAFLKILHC
# Read-out: ligand displacement
# Tested at: 10 µM
Compound,inhibition [%]
CNC(=N)NCCC[C@H](NC(=O)[C@H](CC(C)C)NC(=O)NNC(=O)[C@H](Cc1ccccc1)NC(=O)[C@H](CO)NC(=O)[C@H](CC(N)=O)NC(=O)[C@@H](Cc1ccncc1)NC(=O)[C@H](N)Cc1ccc(O)cc1)C(=O)N[C@@H](Cc1ccccc1)C(N)=O,0.859
CN([C@@H]1CCc2c(CC(=O)O)c3ccccc3n2C1)S(=O)(=O)c1ccc(F)cc1,-31.4
Cc1ccccc1Oc1cc(-n2c(=O)cc(C(F)(F)F)[nH]c2=O)c2ccccc2c1Cl,-12.2
COc1cc(N[C@@H]2CCCC[C@]2(O)C(F)(F)F)ccc1F,-4.34
N#CC1(c2ccccn2)CCN(Cc2cc(C(=O)N3CCCC3)c(=O)n3ccccc23)CC1,-5.66
Nc1nc(NCc2ccccc2)nc(-c2cccc(CO)c2)n1,-7.4
COc1cc(C(=O)O)ncc1C#Cc1ccccc1NS(=O)(=O)c1cccc2c(N(C)C)ccnc12,-0.32

# Set 4
# SMILES: COc1ccc2c(c1)c(C1=C(c3c[nH]c4ccccc34)C(=O)NC1=O)cn2CCCN(C)C
# Read-out: enzyme activity
# Action: inhibitor
# Tested at: 0.5 µM
# Baseline: control
target,remaining activity [%]
"MAPK11 (Homo sapiens, UniProt Q15759)",96.7
"TXK (Homo sapiens, UniProt P42681)",82.8
"PNCK (Homo sapiens, UniProt Q6P2M8)",103
"PAK3 (Homo sapiens, UniProt O75914)",105
"MINK1 (Homo sapiens, UniProt Q8N4C8)",78.6
"NEK3 (Homo sapiens, UniProt P51956)",98.3
"CLK3 (Homo sapiens, UniProt P49761)",43.6
"CDC42BPB (Homo sapiens, UniProt Q9Y5S2)",89.4
"KDR (Homo sapiens, UniProt P35968)",40.7
"ROCK1 (Homo sapiens, UniProt Q13464)",93.5
"MET (Homo sapiens, UniProt P08581)",85.6
"CAMK4 (Homo sapiens, UniProt Q16566)",90.3
"AKT2 (Homo sapiens, UniProt P31751)",110
"CLK4 (Homo sapiens, UniProt Q9HAZ1)",32.8

# Repeated from above (set 3):
Compound,inhibition [%]
Cc1ccccc1Oc1cc(-n2c(=O)cc(C(F)(F)F)[nH]c2=O)c2ccccc2c1Cl,-12.2
N#CC1(c2ccccn2)CCN(Cc2cc(C(=O)N3CCCC3)c(=O)n3ccccc23)CC1,-5.66
